# Results gathered from unrelated publications.
# Each line is one published result; not all experiments were run side by side. ± gives the spread as reported.
# UCHL1: Ubiquitin carboxyl-terminal hydrolase isozyme L1 (UCHL1, Homo sapiens, UniProt P09936)
# Sequence of UniProt P09936 (whole entry, looked up): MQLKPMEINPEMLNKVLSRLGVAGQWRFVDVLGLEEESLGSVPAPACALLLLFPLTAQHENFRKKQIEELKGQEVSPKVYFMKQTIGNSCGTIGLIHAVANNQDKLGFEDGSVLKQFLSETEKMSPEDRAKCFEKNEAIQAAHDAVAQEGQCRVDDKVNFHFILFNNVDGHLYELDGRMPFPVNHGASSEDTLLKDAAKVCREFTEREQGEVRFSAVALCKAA
# Sequence of UniProt Q07794 (whole entry, looked up): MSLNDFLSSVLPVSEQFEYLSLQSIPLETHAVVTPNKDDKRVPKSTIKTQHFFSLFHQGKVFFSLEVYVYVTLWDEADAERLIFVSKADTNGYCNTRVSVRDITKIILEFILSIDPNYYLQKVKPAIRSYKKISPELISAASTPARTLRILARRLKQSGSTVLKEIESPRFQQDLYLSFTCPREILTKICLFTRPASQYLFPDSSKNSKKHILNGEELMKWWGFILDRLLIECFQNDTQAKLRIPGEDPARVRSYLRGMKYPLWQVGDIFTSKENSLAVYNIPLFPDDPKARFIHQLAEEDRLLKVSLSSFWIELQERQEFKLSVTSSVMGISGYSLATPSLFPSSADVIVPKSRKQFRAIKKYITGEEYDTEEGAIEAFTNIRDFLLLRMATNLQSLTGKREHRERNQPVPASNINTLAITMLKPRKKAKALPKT
SMILES,tested on,test,test system,setting,scale,endpoint,result
C[C@@H]1O[C@@H](OC[C@H]2O[C@@H](Oc3cc4c(O)cc(O)cc4[o+]c3-c3cc(O)c(O)c(O)c3)[C@H](O)[C@@H](O)[C@@H]2O)[C@H](O)[C@H](O)[C@H]1O,HIV-1,viral infection,"TZM-bl, NL4-3 (CXCR4-tropic)",48 h,,IC50,34.9 µM
O=C(N/N=C/c1c(O)ccc2ccccc12)c1cc[nH]n1,HIV-1,"viral cytopathic effect, MTT","MT4, IIIB",,,EC50,> 14 µM
O=C(/C=C/c1ccc(O)c(O)c1)O[C@@H]1C[C@@](O)(C(=O)O)C[C@@H](O)[C@@H]1O,HIV-1,viral infection,"TZM-bl, NL4-3 (CXCR4-tropic)",48 h,,IC50,> 100 µM
CCCC(=O)OCSc1ccccc1C(=O)NCCCn1ccc(=O)c2cc3c(cc21)OCO3,HIV-1,"virus-induced cytopathic effect, inhibitor, XTT","CEM-SS, RF",6 days,,EC50,1.93 ± 0.98 µM
C/C(=N\Nc1ccc(S(=O)(=O)Nc2ccccc2)cc1[N+](=O)[O-])c1cc(O)ccc1O,HIV-1,"viral cytopathic effect, MTT","MT4, IIIB",,,EC50,> 28 µM
OC[C@H]1O[C@@H](Oc2cc3c(O)cc(O)cc3[o+]c2-c2ccc(O)c(O)c2)[C@H](O)[C@@H](O)[C@@H]1O,HIV-1,viral infection,"TZM-bl, NL4-3 (CXCR4-tropic)",48 h,,IC50,65.8 µM
O=C(N/N=C/c1c(O)ccc2ccccc12)c1n[nH]c2c1CCC2,HIV-1,"viral cytopathic effect, MTT","MT4, IIIB",,,EC50,> 17 µM
COc1cc(-c2oc3cc(O)cc(O)c3c(=O)c2O[C@@H]2O[C@H](CO[C@@H]3O[C@@H](C)[C@H](O)[C@@H](O)[C@H]3O)[C@@H](O)[C@H](O)[C@H]2O)ccc1O,HIV-1,viral infection,"TZM-bl, NL4-3 (CXCR4-tropic)",48 h,,IC50,> 100 µM
Cc1nnc(NN)c2c1[nH]c1ccccc12,HIV-1,"viral cytopathic effect, MTT","MT4, IIIB",,,EC50,> 50 µM
CCCC(=O)OCSc1ccccc1C(=O)NCCn1ccc(=O)c2cc(Cl)ccc21,HIV-1,"virus-induced cytopathic effect, inhibitor, XTT","CEM-SS, RF",6 days,,EC50,1.94 ± 0.22 µM
O=C(N/N=C/c1cccnc1)C1=NNC2CCCCC12 (stereo not drawn),HIV-1,"viral cytopathic effect, MTT","MT4, IIIB",,,EC50,> 20 µM
COc1cc2c(cc1OC)C(c1ccccc1)N(C(=O)CCl)CC2 (stereo not drawn),UCHL1,"covalent, intact protein LC-MS",,12.5 µM,,labelling,8.14%
CCCC(=O)OCSc1ccccc1C(=O)NCCn1ccc(=O)c2cc(C)ccc21,HIV-1,"virus-induced cytopathic effect, inhibitor, XTT","CEM-SS, RF",6 days,,EC50,0.85 ± 1.46 µM
O=c1c(O[C@@H]2O[C@H](CO)[C@@H](O)[C@H](O)[C@H]2O)c(-c2ccc(O)c(O)c2)oc2cc(O)cc(O)c12,HIV-1,viral infection,"TZM-bl, BaL (CCR5-tropic)",48 h,,IC50,> 100 µM
COc1cnc(-n2cnc(C)n2)c2[nH]cc(C(=O)C(=O)N3CCN(C(=O)c4ccccc4)CC3)c12,HIV-1,"viral replication, inhibitor, pseudovirus neutralization","TZM-bl, 3718.v3.c11",48 h,,IC50,0.01 µM
O=C(/C=C/c1ccc(O)c(O)c1)O[C@H]1[C@H](O)C[C@](O)(C(=O)O)C[C@H]1O,HIV-1,viral infection,"TZM-bl, NL4-3 (CXCR4-tropic)",48 h,,IC50,> 100 µM
Sc1nnnn1-c1ccccc1,"Histone acetyltransferase RTT109, with Vps75 (Saccharomyces cerevisiae, UniProt Q07794)","enzyme activity, inhibitor, HTS, CPM-based, dose response",,,,IC50,> 125 µM
CCCC(=O)OCSc1ccccc1C(=O)NCCOc1ccnc2ccc(C(F)(F)F)cc12,HIV-1,"virus-induced cytopathic effect, inhibitor, XTT","CEM-SS, RF",6 days,,EC50,> 81.9 µM
COc1cc(CN(C)CCc2ccccc2)ccc1OCc1ccccc1,Trypanosoma cruzi,"reporter translation, Renilla luciferase mRNA translation",cell-free extract,40 µM,reference: DMSO,inhibition,-11.9%
C/C(=N\N1CCN(Cc2ccccc2Cl)CC1)c1ccc([N+](=O)[O-])cc1,HIV-1,"viral cytopathic effect, MTT","MT4, IIIB",,,EC50,> 100 µM
Cc1ccc(-c2ccc3c(c2)C=C(C(=O)Nc2ccc(C[N+](C)(C)C4CCOCC4)cc2)CCC3)cc1,HIV-1,viral attachment,"MAGI, Ba-L",washout 3 h post infection,,IC90,0.06 µM
CCCC(=O)OCSc1ccccc1C(=O)NCCn1cc(C(=O)NCc2ccc(C)cn2)c(=O)c2cc3c(cc21)OCO3,HIV-1,"virus-induced cytopathic effect, inhibitor, XTT","CEM-SS, RF",6 days,,EC50,0.67 ± 0.08 µM
O=c1c(O[C@@H]2O[C@H](CO)[C@@H](O)[C@H](O)[C@H]2O)c(-c2ccc(O)cc2)oc2cc(O)cc(O)c12,HIV-1,viral infection,"TZM-bl, BaL (CCR5-tropic)",48 h,,IC50,> 100 µM
CCCC(=O)OCSc1ccccc1C(=O)NCCn1ccc(=O)c2cc3c(cc21)OCO3,HIV-1,"viral replication, measured: reverse transcriptase","human PBMC, 92HT599",7 days,,EC50,0.47 ± 0.11 µM
N#CC(=Cc1cccnc1)C(=O)Nc1cccc2ccccc12,UCHL1,"covalent, intact protein LC-MS",,12.5 µM,,labelling,27.2%
CCCC(=O)OCSc1ccccc1C(=O)NCCn1ccc(=O)c2cc(F)ccc21,HIV-1,"virus-induced cytopathic effect, inhibitor, XTT","CEM-SS, RF",6 days,,EC50,0.56 ± 0.32 µM
COc1ccc(-c2ccc(Cc3cnc(Nc4ccc(C#N)cc4)o3)cc2)cc1,HIV-1,protection from infection,"MT-2, IIIB wild type",concentration not given,,antiviral activity,inactive

# Some of these lines once more:
SMILES,tested on,test,test system,setting,scale,endpoint,result
O=C(N/N=C/c1c(O)ccc2ccccc12)c1n[nH]c2c1CCC2,HIV-1,"viral cytopathic effect, MTT","MT4, IIIB",,,EC50,> 17 µM
COc1cc(-c2oc3cc(O)cc(O)c3c(=O)c2O[C@@H]2O[C@H](CO[C@@H]3O[C@@H](C)[C@H](O)[C@@H](O)[C@H]3O)[C@@H](O)[C@H](O)[C@H]2O)ccc1O,HIV-1,viral infection,"TZM-bl, NL4-3 (CXCR4-tropic)",48 h,,IC50,> 100 µM
Cc1nnc(NN)c2c1[nH]c1ccccc12,HIV-1,"viral cytopathic effect, MTT","MT4, IIIB",,,EC50,> 50 µM
